Measured values from different studies.
Lines come from different studies, so protocols differ.

| SMILES | test | test system | conditions | measurement | result |
| --- | --- | --- | --- | --- | --- |
| N#CCNC(=O)c1ccc(-c2ccnc(Nc3ccc(N4CCOCC4)cc3)n2)cc1 | population PK model, NONMEM | human, plasma | oral, dose not given, typical value, final model | central volume fraction | 0.289 |
| C[C@@]1(Cl)[C@H](O)[C@@H](CO)O[C@H]1n1ccc(=O)[nH]c1=O | – | human | dose not given | central volume of distribution | 3.92 L |
| NC(N)=NCCC[C@@H](N)C(=O)N[C@@H](CCCN=C(N)N)C(=O)N1CCC[C@H]1C(=O)N1C[C@H](O)C[C@H]1C(=O)NCC(=O)N[C@@H](Cc1cccs1)C(=O)N[C@@H](CO)C(=O)N1Cc2ccccc2C[C@@H]1C(=O)N1[C@H](C(=O)N[C@@H](CCCN=C(N)N)C(=O)O)C[C@@H]2CCCC[C@@H]21 | popPK full model bootstrap median | human | subcutaneous, dose not given | central volume (Vc/F) | 20.5 L |
| Cn1cnc2c(F)c(Nc3ccc(Br)cc3Cl)c(C(=O)NOCCO)cc21 | – | human, plasma | oral, dose not given, nonlinear absorption | central volume of distribution | 40 L |
| CN1CC[C@@H](NC(=O)Nc2ccc(C#N)cc2)C[C@@H]1c1nc2ccccc2[nH]1 | – | human cancer patients, plasma | oral, dose not given, population PK base model | central volume Vc/F | 3.27 L |
| Cc1cn(-c2cc(NC(=O)c3ccc(C)c(Nc4nccc(-c5cccnc5)n4)c3)cc(C(F)(F)F)c2)cn1 | population PK model, typical value | human, plasma | oral, dose not given, fasted state | central volume of distribution (V1) | 551 L |
| COC[C@@H](c1ccc(C(F)(F)F)cc1)N1CCN(C2(C)CCN(C(=O)c3c(C)ncnc3C)CC2)C[C@@H]1C | – | human | dose not given, population PK model, together with: ritonavir | central volume of distribution | 41.3 L |
| NC(=O)c1cnc2[nH]ccc2c1N[C@@H]1[C@@H]2CC3C[C@H]1C[C@@](O)(C3)C2 | – | healthy human volunteers, plasma | oral, dose not given, population PK model estimate | central volume | 253 L |
| CN(CCC#N)C1CCN(C(=O)Cn2cc(NC(=O)c3cnn4cccnc34)c(-c3cc(Cl)ccc3OC(F)F)n2)CC1 | gamma scintigraphy | human, right lung | inhalation | central to peripheral ratio | 0.58 |

Repeated from above:
| SMILES | test | test system | conditions | measurement | result |
| --- | --- | --- | --- | --- | --- |
| COC[C@@H](c1ccc(C(F)(F)F)cc1)N1CCN(C2(C)CCN(C(=O)c3c(C)ncnc3C)CC2)C[C@@H]1C | – | human | dose not given, population PK model, together with: ritonavir | central volume of distribution | 41.3 L |
